Published values pooled from the literature.
Lines come from different studies, so protocols differ. “And” joins repeats or separate records; there may be more than shown. ± gives the spread as reported.
nanA: Sialidase A (nanA, Streptococcus pneumoniae, UniProt P62575)
Sequence of UniProt P62575 (whole entry, looked up): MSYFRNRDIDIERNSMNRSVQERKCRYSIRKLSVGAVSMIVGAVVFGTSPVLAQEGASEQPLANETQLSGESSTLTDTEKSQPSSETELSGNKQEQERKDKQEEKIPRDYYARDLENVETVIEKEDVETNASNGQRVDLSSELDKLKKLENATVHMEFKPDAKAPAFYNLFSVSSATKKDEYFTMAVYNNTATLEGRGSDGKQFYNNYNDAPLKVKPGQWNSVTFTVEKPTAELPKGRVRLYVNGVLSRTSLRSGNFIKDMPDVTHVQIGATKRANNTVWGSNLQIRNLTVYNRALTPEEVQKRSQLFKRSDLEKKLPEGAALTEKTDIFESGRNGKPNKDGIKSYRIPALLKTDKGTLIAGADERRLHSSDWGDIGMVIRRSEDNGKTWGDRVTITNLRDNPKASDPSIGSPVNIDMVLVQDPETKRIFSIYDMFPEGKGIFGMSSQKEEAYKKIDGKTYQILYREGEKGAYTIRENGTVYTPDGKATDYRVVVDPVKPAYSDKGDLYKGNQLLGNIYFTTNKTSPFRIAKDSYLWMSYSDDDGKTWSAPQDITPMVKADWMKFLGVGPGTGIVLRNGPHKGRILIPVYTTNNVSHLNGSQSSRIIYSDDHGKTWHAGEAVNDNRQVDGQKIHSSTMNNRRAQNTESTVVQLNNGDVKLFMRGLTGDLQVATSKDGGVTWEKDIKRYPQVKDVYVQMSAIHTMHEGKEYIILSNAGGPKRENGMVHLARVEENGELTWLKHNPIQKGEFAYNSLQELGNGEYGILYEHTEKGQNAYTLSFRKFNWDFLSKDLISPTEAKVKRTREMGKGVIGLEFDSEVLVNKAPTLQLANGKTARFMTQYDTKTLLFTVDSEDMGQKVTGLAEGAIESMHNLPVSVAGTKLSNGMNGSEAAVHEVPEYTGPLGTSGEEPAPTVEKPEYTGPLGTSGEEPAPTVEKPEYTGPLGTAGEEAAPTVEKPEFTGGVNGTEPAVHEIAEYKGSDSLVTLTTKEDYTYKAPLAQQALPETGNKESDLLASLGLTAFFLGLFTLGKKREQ
CHRM5: Muscarinic acetylcholine receptor M5 (CHRM5, Homo sapiens, UniProt P08912)
APP: Amyloid-beta precursor protein (APP, Homo sapiens, UniProt P05067)
Tripartite terminase subunit 3 C-terminal nuclease domain: Tripartite terminase subunit 3, C-terminal nuclease domain (Human betaherpesvirus 5, UniProt P16732)
Sequence of UniProt P16732 (whole entry, looked up): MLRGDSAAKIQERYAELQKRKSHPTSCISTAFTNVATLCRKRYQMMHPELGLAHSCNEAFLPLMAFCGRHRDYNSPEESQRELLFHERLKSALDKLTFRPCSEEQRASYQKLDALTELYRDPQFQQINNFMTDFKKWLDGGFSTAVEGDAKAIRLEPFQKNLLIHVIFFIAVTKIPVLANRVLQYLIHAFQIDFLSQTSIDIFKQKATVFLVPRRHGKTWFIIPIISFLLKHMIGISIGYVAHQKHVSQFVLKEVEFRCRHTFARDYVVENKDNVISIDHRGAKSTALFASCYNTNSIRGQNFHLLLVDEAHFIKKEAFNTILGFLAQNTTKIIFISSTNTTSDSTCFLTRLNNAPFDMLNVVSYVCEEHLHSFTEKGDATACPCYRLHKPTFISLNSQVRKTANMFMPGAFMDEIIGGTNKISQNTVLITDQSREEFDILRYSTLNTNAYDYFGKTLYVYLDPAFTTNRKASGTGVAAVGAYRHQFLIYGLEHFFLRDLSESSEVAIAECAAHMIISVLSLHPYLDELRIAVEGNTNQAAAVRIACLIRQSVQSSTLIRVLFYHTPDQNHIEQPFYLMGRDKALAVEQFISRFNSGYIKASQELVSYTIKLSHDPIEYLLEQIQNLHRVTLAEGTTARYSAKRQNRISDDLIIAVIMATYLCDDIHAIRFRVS

With `CN(C(=O)n1cnc(-c2ccc[n+]([O-])c2)c1)C1CCCCC1` the inhibition was -6% (AVPR2 (Homo sapiens, UniProt P30518); radioligand binding; 50 µM, together with: [3H]arginine vasopressin).
For `Nc1ccc(C(=O)Nc2ccc3c(c2)B(O)OC3)cc1`, the inhibition was 14 ± 2% (Genome polyprotein, NS2B-NS3 protease (West Nile virus, UniProt P06935); enzyme activity, FRET; 50 µM, together with: substrate 50 µM).
`Cn1cc(-c2cccc(N3CCc4c(sc5c4CC(C)(C)C5)C3=O)c2CO)cc(Nc2ccncn2)c1=O` gave an inhibition of -2% (MAPK14 (Homo sapiens, UniProt Q16539); kinase activity, inhibitor, SelectScreen; 1 µM, together with: ATP at apparent Km).
`COc1ccc(N2C(=O)N(c3c(C)cccc3Cl)Cc3cnc(Nc4ccc(C5CCN(C)CC5)cc4OC)nc32)nc1` gave an inhibition of -0.48% (PASK (Homo sapiens, UniProt Q96RG2); kinase activity; 0.5 µM).
`O=C1CN=C(c2ccccc2)c2cc(/N=N/c3ccc(S(=O)(=O)O)cc3)ccc2N1` has an inhibition of 76 ± 4% (HTR3A (Homo sapiens, UniProt P46098); 5-HT-induced current, inhibitor, whole-cell patch clamp; CHO cells; 100 µM, UV light, together with: 5-HT).
For `N[C@@H]1C[C@H]1c1ccccc1` (racemic), inhibition read “no inhibition” (ERO1-like protein alpha (Homo sapiens, UniProt Q96HE7, C104A/C131A/C166A); enzyme activity, inhibitor, Amplex Red; recombinant enzyme; up to 200 µM).
`O=C1O[C@H]2[C@@H]3OC(=O)c4cc(O)c(O)c(O)c4-c4c(O)c(O)c5oc(=O)c6c(c(O)c(O)c7oc(=O)c4c5c76)-c4c(cc(O)c(O)c4O)C(=O)OC[C@H]3OC(O)[C@@H]2OC(=O)c2cc(O)c(O)c(O)c2-c2c1cc(O)c(O)c2O` (mixture of isomers): inhibition “inhibited” (PDIA6 (Homo sapiens, UniProt Q15084); di-eosin-GSSG reductase activity; 20 µM, 15 min).
Under “terminal elimination rate constant”, `CC[C@H](C)[C@H](NC(=O)[C@H](Cc1ccccc1)NC(=O)[C@H](CCC(=O)O)NC(=O)[C@H](CCCNC(=N)N)NC(=O)[C@H](C)NC(=O)[C@H](C)NC(=O)[C@H](CCC(N)=O)NC(=O)[C@H](CCC(=O)O)NC(=O)[C@H](CCC(=O)O)NC(=O)[C@H](CC(C)C)NC(=O)[C@H](Cc1ccc(O)cc1)NC(=O)[C@H](CO)NC(=O)[C@H](CO)NC(=O)[C@@H](NC(=O)[C@H](CC(=O)O)NC(=O)[C@H](CO)NC(=O)[C@@H](NC(=O)[C@H](Cc1ccccc1)NC(=O)[C@@H](NC(=O)CNC(=O)[C@H](CCC(=O)O)NC(=O)[C@H](C)NC(=O)CCc1c[nH]cn1)[C@@H](C)O)[C@@H](C)O)C(C)C)C(=O)N[C@@H](C)C(=O)N[C@@H](Cc1c[nH]c2ccccc12)C(=O)N[C@@H](CC(C)C)C(=O)N[C@H](C(=O)N[C@@H](CCCNC(=N)N)C(=O)NCC(=O)N[C@@H](CCCNC(=N)N)C(=O)N[C@@H](CCCCNC(=O)COCCOCCNC(=O)COCCOCCNC(=O)CC[C@H](NC(=O)CCCCCCCCCCCCCCCCC(=O)O)C(=O)O)C(=O)NCC(=O)NCC(=O)N[C@@H](CO)C(=O)N[C@@H](CCCCNc1c(NCCCCCN(O)C(=O)CCC(=O)NCCCCCN(O)C(=O)CCC(=O)NCCCCCN(O)C(C)=O)c(=O)c1=O)C(=O)O)C(C)C` is recorded as 0.0844 h⁻¹ (UPLC-MS; rat, plasma; subcutaneous, 20 nmol/kg).
`CC(=O)N[C@H]1[C@H]([C@H](O)[C@H](O)CO)OC(C(=O)O)=C[C@@H]1O` gave an inhibition of 68.3 ± 2.7% (nanA; 8 µM, pH 6).
With `CN1CCN(c2cc(-c3ccncc3)c(-c3ccc4ccccc4c3)nn2)CC1` the inhibition was 16.7% (CHRM5; antagonist, FLIPR; 10 µM).
For `C[C@@]12C(=O)OC(=O)[C@]1(C)[C@H]1CC[C@@H]2O1`, the inhibition was over 90% (TLR2 (Homo sapiens, UniProt O60603); SEAP reporter gene, antagonist; HEK-Blue hTLR2; 10 µM, together with: Pam3CSK4).
For `OC[C@H]1O[C@@H](n2cnc3c2NC=NC[C@H]3O)C[C@@H]1O`, the maximum inhibition was 8.83% (human coronavirus OC43; virus-induced cell killing; MRC-5; screen).
With `COc1ccc(S(=O)(=O)Oc2ccc3c(c2)Oc2nc4c(c(N)c2C3c2cccc(OC)c2)CCCC4)cc1` (centres unmarked) the inhibition was 5.1% (APP; Aβ42 self-aggregation, inhibitor, thioflavin T fluorescence; 0.1 µM).
`O=c1[nH]c2scc(-c3ccc(Cl)cc3)c2c(=O)n1O` gave an inhibition of 100% (Tripartite terminase subunit 3 C-terminal nuclease domain; endonuclease activity, ELISA; 20 µM, together with: dsDNA).
With `O=C(Nc1cnccc1Cl)N1CCN(Cc2ccc3c(c2)OC(F)(F)O3)CC1` the inhibition was 12% and 14% (CXCR4 (Homo sapiens, UniProt P61073); radioligand binding, inhibitor; concentration not given).
`N#Cc1ccc(CNc2ccc3c(c2)B(O)OC3)cc1` has an inhibition of 19 ± 4% (Genome polyprotein, NS2B-NS3 protease (West Nile virus, UniProt P06935); enzyme activity, FRET; 50 µM, together with: substrate 50 µM).
`O=c1[nH]c2cc(-c3ccc(Cl)cc3)sc2c(=O)n1O` gave an inhibition of 80% (Tripartite terminase subunit 3 C-terminal nuclease domain; endonuclease activity, ELISA; 20 µM, together with: dsDNA).
For `Nc1c2c(nc3c1C(c1ccc(Cl)c(Cl)c1)c1ccc(OCC(=O)c4ccc(Cl)cc4)cc1O3)CCCC2` (centres unmarked), the inhibition was 87% (APP; Aβ42 self-aggregation, inhibitor, thioflavin T fluorescence; 100 µM).
For `CC1=C(CC(=O)O)c2cc(F)ccc2/C1=C\c1ccc([S+](C)[O-])cc1` (centres unmarked), the maximum inhibition was 24.4% (human coronavirus OC43; virus-induced cell killing; MRC-5; screen).
`N=C(N)Nc1ccc2c(c1)B(O)OC2` has an inhibition of 15 ± 2% (Genome polyprotein, NS2B-NS3 protease (West Nile virus, UniProt P06935); enzyme activity, FRET; 50 µM, together with: substrate 50 µM).
The inhibition of `COc1cc(Nc2ncc(F)c(Nc3ccc4c(n3)NC(=O)C(C)(C)O4)n2)cc(OC)c1OC` is reported as 66% (TAOK3 (Homo sapiens, UniProt Q9H2K8); KINOMEscan; 10 µM).
`Cn1cccc1-c1cccnc1` gave an inhibition of -18.1% (HRH4 (Homo sapiens, UniProt Q9H3N8); binding; 50 µM).
`Cc1ccc(S(=O)(=O)n2c(N)nc3ccccc32)cc1` gave an inhibition of 54.6% (CHRM5; 10 µM).
For `C[S+](C)[O-]`, the inhibition was at least 21% (ache (Electrophorus electricus, UniProt O42275); enzyme activity, inhibitor, Ellman; concentration not given).
With `N=C(N)Nc1ccc(C(=O)Nc2ccc3c(c2)B(O)OC3)cc1` the inhibition was 44 ± 7% (Genome polyprotein, NS2B-NS3 protease (dengue virus type 2, UniProt P29990); enzyme activity, FRET; dengue virus serotype 2; 50 µM, together with: substrate 50 µM).
For `Cc1ccc(S(=O)(=O)Oc2ccc3c(c2)Oc2nc4c(c(N)c2C3c2ccc(Cl)c(Cl)c2)CCCC4)cc1` (centres unmarked), the inhibition was 2.7% (APP; Aβ42 self-aggregation, inhibitor, thioflavin T fluorescence; 0.01 µM).
With `O=C(Nc1cccnn1)N1CCC(=Cc2cccc(Oc3ccc(C(F)(F)F)cn3)c2)CC1` the inhibition was -8% (ZAP70 (Homo sapiens, UniProt P43403); kinase activity, inhibitor; 50 µM, human, together with: poly(Glu,Tyr)).
`Nc1ncnc2c1ncn2[C@@H]1O[C@H](C[C@@H](N)CC[C@H](N)C(=O)O)[C@@H](O)[C@H]1O` gave an inhibition of 50.8% (Genome polyprotein, NS5 methyltransferase domain (Zika virus, UniProt Q32ZE1); NS5 enzyme activity, inhibitor; 3.125 µM).
For `O=C(Nc1ccc2c(c1)B(O)OC2)OCc1ccccc1`, the inhibition was at most 10% (Genome polyprotein, NS2B-NS3 protease (dengue virus type 2, UniProt P29990); enzyme activity, FRET; dengue virus serotype 2; 50 µM, together with: substrate 50 µM).
For `CC(=O)N[C@H]1[C@H]([C@H](O)[C@H](O)CO)OC(C(=O)O)=C[C@@H]1N`, the inhibition was 7.9 ± 2.6% (nanA; 8 µM, pH 6).
`O=C(Nc1ccc2c(c1)B(O)OC2)c1cccc(OCC2CCCCC2)c1` gave an inhibition of 14 ± 2% (Genome polyprotein, NS2B-NS3 protease (West Nile virus, UniProt P06935); enzyme activity, FRET; 50 µM, together with: substrate 50 µM).
The inhibition of `O=C1c2ccccc2C(c2ccccc2)C(=O)N1O` (centres unmarked) is reported as 28% (Tripartite terminase subunit 3 C-terminal nuclease domain; endonuclease activity, ELISA; 20 µM, together with: dsDNA).
`CC[C@H](C)[C@H](NC(=O)[C@@H](NC(=O)[C@H](N)Cc1ccccc1)C(C)C)C(=O)N[C@@H](C)C(N)=O` has an inhibition of 87.4% (APP; amyloid-beta aggregation, thioflavin T fluorescence; 0.5 µM, 24 h, together with: 2 µM amyloid-beta).
For `CN(c1ccc2c(c1)B(O)OC2)S(=O)(=O)c1ccc(Cl)cc1`, the inhibition was 19 ± 7% (Genome polyprotein, NS2B-NS3 protease (dengue virus type 2, UniProt P29990); enzyme activity, FRET; dengue virus serotype 2; 50 µM, together with: substrate 50 µM).
`CCc1ccc(Sc2cc(C(=O)NCCCN3CCCC(C)C3)c3ccccc3n2)cc1` (centres unmarked) has a cytotoxicity efficacy of 0% (Vero-E6; CellTiter-Glo ATP; concentration not given, 72 h, first round 5-point; relative to: DMSO 0%, hyamine -100%, more negative, more toxic).
